Published values collected from several papers.
Lines come from different studies, so protocols differ. ± gives the spread as reported.
Chain of UniProt P21917 (whole entry, looked up): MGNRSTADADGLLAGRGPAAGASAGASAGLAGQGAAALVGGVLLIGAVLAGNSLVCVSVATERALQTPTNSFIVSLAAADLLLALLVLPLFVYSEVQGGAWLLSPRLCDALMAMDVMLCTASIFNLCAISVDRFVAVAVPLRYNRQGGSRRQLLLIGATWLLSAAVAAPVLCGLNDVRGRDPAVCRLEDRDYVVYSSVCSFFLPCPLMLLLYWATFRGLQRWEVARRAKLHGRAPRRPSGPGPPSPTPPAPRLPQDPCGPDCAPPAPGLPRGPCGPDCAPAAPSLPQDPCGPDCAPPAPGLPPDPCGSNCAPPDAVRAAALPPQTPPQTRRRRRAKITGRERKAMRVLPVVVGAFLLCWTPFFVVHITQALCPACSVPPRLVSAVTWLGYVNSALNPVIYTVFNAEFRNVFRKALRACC
Chain of UniProt O14920 (whole entry, looked up): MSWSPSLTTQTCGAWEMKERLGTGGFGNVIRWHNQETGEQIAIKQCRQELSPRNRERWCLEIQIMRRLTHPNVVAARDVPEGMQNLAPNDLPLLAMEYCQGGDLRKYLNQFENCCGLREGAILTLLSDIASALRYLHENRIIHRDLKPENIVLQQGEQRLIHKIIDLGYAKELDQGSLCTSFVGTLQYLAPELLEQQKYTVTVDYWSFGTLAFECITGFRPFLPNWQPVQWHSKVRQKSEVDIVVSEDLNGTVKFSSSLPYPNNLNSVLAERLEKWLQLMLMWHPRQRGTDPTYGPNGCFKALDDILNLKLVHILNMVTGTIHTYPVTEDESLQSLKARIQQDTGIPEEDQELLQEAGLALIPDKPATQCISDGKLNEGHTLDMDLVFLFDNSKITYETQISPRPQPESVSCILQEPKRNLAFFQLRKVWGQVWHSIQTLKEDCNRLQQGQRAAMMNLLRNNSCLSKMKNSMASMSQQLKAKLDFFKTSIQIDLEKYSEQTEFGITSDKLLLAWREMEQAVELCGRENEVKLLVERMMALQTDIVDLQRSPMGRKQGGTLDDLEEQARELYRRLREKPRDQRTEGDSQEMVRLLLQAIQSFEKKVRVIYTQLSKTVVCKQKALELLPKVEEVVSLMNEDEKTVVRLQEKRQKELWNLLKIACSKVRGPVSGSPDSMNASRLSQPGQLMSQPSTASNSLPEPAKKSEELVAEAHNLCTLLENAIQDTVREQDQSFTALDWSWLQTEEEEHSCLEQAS
Chain of UniProt P54760 (whole entry, looked up): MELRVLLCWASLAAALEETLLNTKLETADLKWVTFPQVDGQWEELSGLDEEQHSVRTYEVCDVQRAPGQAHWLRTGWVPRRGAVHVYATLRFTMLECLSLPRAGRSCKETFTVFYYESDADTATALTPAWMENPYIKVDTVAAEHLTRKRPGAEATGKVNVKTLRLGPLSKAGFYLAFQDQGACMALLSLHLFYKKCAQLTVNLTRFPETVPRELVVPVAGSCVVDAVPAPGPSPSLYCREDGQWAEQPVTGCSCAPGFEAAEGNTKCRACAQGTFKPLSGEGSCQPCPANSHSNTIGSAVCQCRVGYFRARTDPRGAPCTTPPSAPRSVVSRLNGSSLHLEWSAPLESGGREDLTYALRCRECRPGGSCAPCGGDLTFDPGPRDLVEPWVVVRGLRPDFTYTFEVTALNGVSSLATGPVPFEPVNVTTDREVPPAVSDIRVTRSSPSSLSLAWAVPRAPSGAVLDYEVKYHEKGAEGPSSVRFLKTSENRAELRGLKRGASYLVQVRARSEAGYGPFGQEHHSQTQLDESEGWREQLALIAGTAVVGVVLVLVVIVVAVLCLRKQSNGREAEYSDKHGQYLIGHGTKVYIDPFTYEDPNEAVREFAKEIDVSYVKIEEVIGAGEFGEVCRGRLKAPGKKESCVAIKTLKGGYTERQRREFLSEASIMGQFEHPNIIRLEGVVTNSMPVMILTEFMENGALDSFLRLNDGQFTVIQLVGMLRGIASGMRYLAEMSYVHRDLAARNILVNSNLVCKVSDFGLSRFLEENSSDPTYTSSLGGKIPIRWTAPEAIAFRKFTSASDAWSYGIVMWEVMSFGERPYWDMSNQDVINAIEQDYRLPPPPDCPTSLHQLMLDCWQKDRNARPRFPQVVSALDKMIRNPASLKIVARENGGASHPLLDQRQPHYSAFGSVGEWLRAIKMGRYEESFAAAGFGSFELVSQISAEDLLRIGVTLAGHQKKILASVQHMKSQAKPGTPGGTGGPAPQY

`CCN(C(=O)c1cc(F)ccc1Oc1nncnc1N1CCC2(C1)CN([C@H](CCCN(C)CCOC)C(C)C)C2)C(C)C` gave a GI50 of greater than 10000 nM (U2OS; cell growth or viability; 7 days).
For `Cn1ncc2cc(-c3cncc(Cl)c3N3CCC4(CCNC4=O)CC3)ccc21`, “log2 fold change” read -2.04 (LS174T; gene expression, microarray, item: MAT2A mRNA; concentration not given, 24 h; relative to: untreated cells).
`Cc1ncsc1-c1ccc(C(C)NC(=O)C2CC(O)CN2C(=O)C(NC(=O)CCCCCCCCCCN2CCCC(Nc3ncc(Cl)c(Nc4ccccc4S(=O)(=O)C(C)C)n3)C2)C(C)(C)C)cc1` (stereo not drawn) — result for “log2 fold change”: -1.03 (22Rv1; RNA-seq, item: PIP5K1C mRNA; concentration not given; relative to: DMSO).
For `CN1CCCNC(=O)c2cccc(c2)C(=O)NCCCN(C)CCCNc2cccc3c2C(=O)c2cccc(c2C3=O)NCCC1`, “log2 fold change” read -1.52 (SAS; RNA-Seq, item: STXBP5 mRNA; 1 µM, 6 h; relative to: untreated cells).
For `CCN(CC)CC(=O)Nc1cccc(-n2cc(-c3ccc4ccc(-c5cn(-c6cccc(NC(=O)CN(CC)CC)c6)nn5)cc4c3)nn2)c1`, the IC50 was greater than 10000 nM (EPHB4 (Homo sapiens, UniProt P54760); enzyme activity, inhibitor).
`c1ccc(-c2n[nH]cc2-c2ccnc3ccccc23)nc1` — result for “log2 fold change”: -0.21 (TPK2 (Candida albicans); kinase binding, MIB/MS competition; Candida albicans lysate; 10 µM; relative to: DMSO).
With `CC(C)c1ccc(N(C)c2ccc3c(c2)OCC[C@H]3CNc2cnccc2C(=O)O)cc1` the IC50 was 3.21 nM (Namalwa; cell growth, CellTiter-Glo; 7 days).
With `Nc1ncc(-c2cc(-c3cnn(CC(F)(F)F)c3)ncc2F)nc1C(=O)NC1CNCC(F)C1` (stereo not drawn) the remaining binding was 0.8% (DLK; KINOMEscan competition binding; 1 µM; relative to: DMSO control).
`CNS(=O)(=O)Nc1nccc(Cc2c(C)c3ccc(Oc4ncccc4F)cc3oc2=O)c1F` has an IC50 of greater than 1000 nM (SK-PN-DW; cell viability, CellTiter-Glo; 7 days).
`C=CC(=O)Nc1cccc(Cn2ncc3cnc(Nc4cnn(CCOC)c4)nc32)c1` — result for “percent of control”: 27% (ERK8 human; binding, KINOMEscan; 100 nM; lower = stronger binding).
For `Cc1nn(-c2cccc(N)c2)c(=O)c2cnc(Nc3ccc(N4CCNCC4)cc3)nc12`, the IC50 was greater than 10000 nM (IKBKB (Homo sapiens, UniProt O14920); enzyme activity, inhibitor).
`CCCC[C@H](NC(=O)COCCOCCNC(=O)CN1CCN(CC(=O)O)CCN(CC(=O)O)CC1)C(=O)N[C@H]1CC(=O)NCCCC[C@@H](C(N)=O)NC(=O)[C@H](Cc2c[nH]c3ccccc23)NC(=O)[C@H](CCCNC(=N)N)NC(=O)[C@@H](Cc2ccccc2)NC(=O)[C@H](Cc2c[nH]cn2)NC1=O` [technetium-99m labelled] gave a tissue uptake of 0.93 ± 0.2 %ID/g (C57 mouse, muscle; intravenous, 0.037 MBq, 0.5 h).
`CC(C)C[C@@H](NC(=O)[C@@H](CC(C)C)NC(=O)[C@@H](CC(=O)O)NC(=O)[C@@H](CC(C)C)NC(=O)[C@@H](CC(C)C)NC(=O)[C@@H](CC(C)C)NC(=O)[C@H](NC(=O)[C@@H](CC(=O)O)NC(=O)[C@H](NC(=O)[C@H]1CCCN1C(=O)[C@@H](Cc1ccccc1)NC(=O)[C@@H](CC(C)C)NC(=O)[C@@H](CC(C)C)NC(=O)[C@@H](CC(=O)O)NC(=O)[C@@H](CC(C)C)NC(=O)[C@@H](Cc1ccc(O)cc1)NC(=O)[C@@H](C)NC(=O)[C@@H](CCCNC(=N)N)NC(=O)[C@@H](Cc1c[nH]c2ccccc12)NC(=O)[C@H]1CCCN1C(=O)[C@@H](CC(N)=O)NC(=O)[C@@H](CCC(N)=O)NC(=O)[C@@H](CC(=O)O)NC(=O)[C@@H](CC(=O)O)NC(=O)[C@@H](CSC1CC(=O)N(CCNC(=O)CN2CCN(CC(=O)O)CCN(CC(=O)O)CC2)C1=O)NC(=O)[C@@H](C)N)[C@H](C)O)[C@H](C)O)C(=O)N[C@H](Cc1c[nH]c2ccccc12)C(=O)O` (stereo partly drawn) [copper-64 labelled] has a tissue uptake of 12 %ID/g (C57BL/6 mice, female, B16-F10 melanoma, blood; intravenous, 14.5 h).
`COc1ccc(CN2CC(COc3ccc(F)c(F)c3)CC(F)(F)C2)cc1F` (stereo not drawn) gave a Ki of 210 nM (DRD4 (Homo sapiens, UniProt P21917); ligand displacement, radioligand; cell membranes).
For `COC1CN([C@H]2CC[C@H]([C@@]3(C)Oc4c(Cl)cc(C(=O)NCc5c(SC)cc(C)[nH]c5=O)c(C)c4O3)CC2)C1`, “log2 fold change” read 0.258 (RNA-seq, item: SEPTIN10 mouse homolog; mouse, HT-1376 xenograft, whole blood; dose not given; relative to: vehicle).

Excerpt of the above:
For `CN1CCCNC(=O)c2cccc(c2)C(=O)NCCCN(C)CCCNc2cccc3c2C(=O)c2cccc(c2C3=O)NCCC1`, “log2 fold change” read -1.52 (SAS; RNA-Seq, item: STXBP5 mRNA; 1 µM, 6 h; relative to: untreated cells).
`Cc1ncsc1-c1ccc(C(C)NC(=O)C2CC(O)CN2C(=O)C(NC(=O)CCCCCCCCCCN2CCCC(Nc3ncc(Cl)c(Nc4ccccc4S(=O)(=O)C(C)C)n3)C2)C(C)(C)C)cc1` (stereo not drawn) — result for “log2 fold change”: -1.03 (22Rv1; RNA-seq, item: PIP5K1C mRNA; concentration not given; relative to: DMSO).
